Published values pooled from the literature.
Each line is one published result; not all experiments were run side by side. “And” joins repeats or separate records; there may be more than shown. Numbers after ± are the reported error.

SMILES | system | setting | scale | endpoint | result
C=CC(=O)N1CCC([C@@H]2CCNc3c(C(N)=O)c(-c4ccc(Oc5ccccc5)cc4)nn32)CC1 | Sprague-Dawley rat | oral, dose not given, added: posaconazole | relative to: alone | AUC(0-inf) fold change | 0.98 fold
CCc1c(-c2ccccc2)c(-c2ccccc2)nn1-c1ccccc1-c1cccc(OCC(=O)O)c1 | Sprague-Dawley rat | oral, dose not given | – | AUC(0-inf) observed | 4950 ng·h/mL and 5820 ng·h/mL and 5830 ng·h/mL
C1=C/COCc2cc(ccc2OCCN2CCCC2)Nc2nccc(n2)-c2cccc(c2)COC/1 | Sprague-Dawley rats, male, plasma | oral, dose not given, added: voriconazole | relative to: vehicle control | AUC(0-inf) | 27 % increase
COC(=O)C1=CO[C@@H](O[C@@H]2O[C@H](CO)[C@@H](O)[C@H](O)[C@H]2O)[C@@H]2C(CO)=CC[C@H]12 | rat, plasma | oral, dose not given, dosed as combined Eu and Pc extracts | relative to: single extracts | AUC(0-inf) decrease | 135000 ± 64200 ng·h/mL
Cc1cccc(CNC(=O)c2cn(CCNC(=O)c3ccccc3S)c3cc4c(cc3c2=O)OC(F)(F)O4)n1 | Sprague-Dawley rat, male, whole blood | intramuscular, 30 mg/kg of parent compound | – | AUC(0-inf) | 8880 ng·h/mL
C=CC(=O)N1CCC(Oc2cc3c(Nc4ccc(Cl)c(Cl)c4F)ncnc3cc2OC)CC1 | Sprague-Dawley rat male, plasma | oral, 2 mg/kg, added: schisandrin A 20 mg/kg daily 1 weeks pretreatment | relative to: no pretreatment | AUC(0-inf) ratio | 0.79 fold
OCC1=C[C@@H](O)[C@@H]2C=CO[C@@H](O[C@@H]3O[C@H](CO)[C@@H](O)[C@H](O)[C@H]3O)[C@H]12 | rat, plasma | oral, dose not given, dosed as combined Eu and Pc extracts | relative to: single extracts | AUC(0-inf) decrease | 197000 ± 126000 ng·h/mL
COc1cc2nccc(Oc3ccc(NC(=O)NC4CC4)c(Cl)c3)c2cc1C(N)=O | Sprague-Dawley rats male, plasma | oral, dose not given, added: isavuconazole | relative to: without isavuconazole | AUC(0-inf) increase | 50%
CSc1ccccc1C(=O)NCCn1cc(C(=O)NCc2cccc(C)n2)c(=O)c2cc3c(cc21)OC(F)(F)O3 | Sprague-Dawley rat, male, plasma | intravenous, 20 mg/kg of parent drug | – | AUC(0-inf) | 1140 ± 35.3 ng·h/mL
CNC(=O)c1cccc(-c2ccc([C@@H](O)[C@H]3O[C@H](CO)[C@@H](O)[C@H](O)[C@@H]3O)c(C)c2)c1 | male Sprague-Dawley rat, plasma | oral, 10 mg/kg, group mean | – | AUC(0-inf) | 83.8 ng·h/mL
Cc1cccc(CNC(=O)c2cn(CCNC(=O)c3ccccc3Sc3c([N+](=O)[O-])ncn3C)c3cc4c(cc3c2=O)OC(F)(F)O4)n1 | Sprague-Dawley rat, male, whole blood | intramuscular, 10 mg/kg | – | AUC(0-inf) | 109 ng·h/mL
CCc1cc(C(=O)NC)c2nccc(N3CCc4c(cc(Cn5ccnc5)cc4-c4cn(C)nc4C(F)(F)F)C3=O)c2c1 | Sprague Dawley rat, male, plasma | oral, 100 mg/kg once daily, 7 days, toxicokinetic satellite group | – | AUC(0-inf) | 53300 ng·h/mL

Repeated from above:
SMILES | system | setting | scale | endpoint | result
CSc1ccccc1C(=O)NCCn1cc(C(=O)NCc2cccc(C)n2)c(=O)c2cc3c(cc21)OC(F)(F)O3 | Sprague-Dawley rat, male, plasma | intravenous, 20 mg/kg of parent drug | – | AUC(0-inf) | 1140 ± 35.3 ng·h/mL
